# Published values from different studies.
# Numbered parts are unrelated; each lists some results of a single study. Changes are numbered by the printed parent chain.

# Block 1
# Target: ABI1, truncated, D143A, DHFR fusion (Arabidopsis thaliana)
# Method: DHFR PCA, deep sequencing
# Matrix: yeast
# Notes: methotrexate growth selection, single substitutions
# Added: (+)-ABA 58 µM
# Reference: wild-type fitted maximum
# Reading: higher = stronger binding
# Starting sequence: PYL1, truncated, DHFR fusion (Arabidopsis thaliana); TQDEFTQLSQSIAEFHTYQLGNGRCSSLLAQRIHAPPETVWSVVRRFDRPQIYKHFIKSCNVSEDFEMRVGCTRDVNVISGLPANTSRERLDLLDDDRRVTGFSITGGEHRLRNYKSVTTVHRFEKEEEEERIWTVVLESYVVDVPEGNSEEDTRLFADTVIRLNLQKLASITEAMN
Change,relative binding score
I52R,82%
I133V,95.3%
A30N,63.3%
N149R,16.2%
S26M,82%
T39S,87.1%
D3R,83%
T135E,-6.21%
I105A,29.9%
Q51I,15.5%
T160F,84.4%
L166C,0.502%
N85P,40.2%
T135A,67.1%
D75W,80.3%

# Block 2
# Target: RNA binding protein fox-1 homolog 2, RRM domain, GST-SBP tag (RBFOX2, Homo sapiens, UniProt O43251-10, residues 100-194)
# Method: RNA Bind-n-Seq
# Form: RNA
# Matrix: in vitro
# Tested at: 365 nM
# Notes: natural RNA segment, single round, ends assumed
# Reference: no-protein control
# Reading: higher = stronger binding
# All sequences stand within: GGGAGUUCUACAGUCCGACGAUC … UGGAAUUCUCGGGUGCCAA
# Construct (chain): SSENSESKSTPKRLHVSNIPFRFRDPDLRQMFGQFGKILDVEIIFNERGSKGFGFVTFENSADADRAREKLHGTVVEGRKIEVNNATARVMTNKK
Strand,RBNS enrichment (R)
AGACACUCCCGCUGUAUGUGGUGAGCUUGGCUGGAAACUUGCCAUAGCCAGGACUGAGGGGCUGGCCCCAGGACGCUCUCAAGAAAUGGGGCUACUGUGGUUUAGACACU,0.904
CCCUCUGCCGGGGUCCGGAAGCGACAUCUCAGGAGGUAGCUCUCAGCAGAGUGAGGAUUCCUGCCUUUCGUAGAGUUUUGUGUGACUUUUUAAAUUAUUCAUGUGUCCCU,0.54
GUGACUGAGGCUUCCACCAGAGUGCCAGGGCUCUGUGCAGACUCAGAAUCCCUGUUCCCUAUGUCACGUUCCAGCAUUGUAUAGCACAGUUCCAUGUCACAAACAGGAAG,0.765
UGAAGUGCUUUACUUUUUGCACAAUUUUAAUAGCUUGCUAUUCAGUAAUACAUUAUAGUGAAUUCAUGAUCAAGGUUUCCUUAAAUUUAGCAUUGCAUUUCAGUACUGAC,0.44
CUUCUAUAUAAAACUUAAUACCAUUAGUUCCCCAUUCUUGACAUUUUAUUUCAGUUUUUAUUAUAUAUUUAUUUGAAAUAUUUAUUAAAUUAUCUGACCUACAGAACUAA,1.55
CCCUUAGCCAUUCCCACCCAUCUGUAACAAUGAUCUGGGAGCUCGGCUCCAAGCAUCCCUGGUUACCUGUUCAGCCUGCAAGGCCGAUGUAUAGUGUACCUCAAUUCACA,0.329
CAGGCUGGCCUCGAACUCAGAAAUCGGCCUGCCUCUGCCUCCCGAGUGCUGGGAUUAAAGGCGUGCGCCACCACGUCUGGCUCCAUUUCUAAGUCUUGAACCAACUGACU,0.219
UCUGUACACGUUCUUAAGCAGCGUGUCAGGAGAGCACCCUGUUGUCUUCUGGUAAAUGUGUGCAGGGUCAUCCUGUCUCCUGUACCUCCUGGGAAAGGGGCCGCUGCUGU,0.219
UAAUUACCUAGCUGUUGCUGGACACCAGCUGUGCAUACCUGAGCAUGCCCAGUGCAUGUUGGGUCCAUGCACAACUCCUGGACCCGAGCUUUCACCAAGCUCUGGCCUCC,0.239
AAAUAAACUUGUGAAGUCUGUUUAUUUUGAAGUAUUGGUGAACUAGGCUUGCUAAUUGAUAACUGCAGCAGUUUGUGUUUACUCCAGUUCAUCAGCUUAGGUCAUUUGAA,0.912
UCAAGCCCUGCUUCUCAGCUAGUGAGCAUCAGCCCAAAGUCAGAACUCACAGGGGAUUCUCUGCAUUCAUCCCGGGUCUGUCCUCUCUGACUCUGCUACAUACAGGGUCC,0.318
UAUGCAAUCCUAAAGGACGAAACUCACCCAUGGGAGGCCGAAUUCUCCUUGGGAUGAAGAAAUUUCUCUUUCCCUGUCAUGAGUGUCCAGCCAGGGAGCAGGGAGGCAGU,0.456

# Block 3
# Target: RING finger protein unkempt homolog, zinc fingers 1-6, GST-SBP tag (UNK, Homo sapiens, UniProt Q9C0B0, residues 30-357)
# Method: RNA Bind-n-Seq
# Form: RNA
# Matrix: in vitro
# Tested at: not given
# Notes: RNA with constant flanks, human-mouse chimeric sites, ends assumed
# Reference: input RNA pool
# Reading: higher = stronger binding
# All sequences stand within: GGGAGUUCUACAGUCCGACGAUC … CAACAGAGGAUUGAGCAUCA
# Residues (chain): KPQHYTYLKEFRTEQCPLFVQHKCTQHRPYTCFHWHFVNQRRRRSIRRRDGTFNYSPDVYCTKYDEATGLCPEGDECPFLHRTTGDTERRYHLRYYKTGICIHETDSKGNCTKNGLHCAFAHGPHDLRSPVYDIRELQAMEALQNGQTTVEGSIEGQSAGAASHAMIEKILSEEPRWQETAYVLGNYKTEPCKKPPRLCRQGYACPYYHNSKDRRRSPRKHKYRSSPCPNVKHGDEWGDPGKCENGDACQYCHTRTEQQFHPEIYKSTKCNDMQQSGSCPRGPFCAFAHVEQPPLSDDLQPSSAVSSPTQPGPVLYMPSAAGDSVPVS
Strand,bound/input enrichment
AGUGUGCAGGAAUUCAUGACCUUUACAAGUCAACUGAUUGUGGAACGCUCGGGGAAAGGCAGCAGAGCUUCUGUCAAAGAACAAGAGUAUCUGUGCCAUGUCUACGUCCGGAGCGACAGU,0.0928 ratio
UGGGCACUGUAUCAGAUAUAUUAAUUUUUUAAUGUAGAUGUAAUUUUAAAAAUGAAUGGCUACUUUACACGUUUAACUAGGGUUUUACUAUAUAUGUGUACAUAUGUAUAUAUAUAUAUA,16 ratio
UUACCCGAGAACGAGGAUGAGCUGGAGAGCACCAACAGGCGCUACACCAAGAGAGACUGCAGCACUUUCCUCAGAACUAGCGAGACGGGCAUCGUGGACCAGGUCAUGGUCACUCUCAAC,0.162 ratio
AGUGUGCAGGAAUUCAUGACCUUUACAAGUCAACUGAUUGUGGAACGCUCAUCGAAAGGCACUAGAGCUUCUGUCAAAGAACAAGAGUAUCUUUGCCAUGUCUACGUCCGGAGCGACAGU,0.0809 ratio
GCUCCUCCCCGCUCUGCCCCUGCCUGCCACUGGGCUGGGACCAGAAUCCAGCUUUCUUUUAAAACUCUCAGUGUAACUGUAUCCCGUGACAUUUCAUUUUUUUUAAAAGAAAAAAACUUU,0.297 ratio
UGUGAACUGUCUCUUGAGAUCUAAAAAAAACAUGAUUUUUCCUGGCACAUAUUCCAAAGCAAAGACUUUGUUACCUGCUGCUUAUUGUCUAAUUUACAGGGAUAUUUAAUUUUGUCAGGU,0.186 ratio
GGCUGCUACUAUUCUCCCUGGAGUGGCUGGAGUUCCCGCCGGAGCGCGGCCAGACUAAUUUUAGAAAAUGCCAAGUAGGAAGUUUGUUGAGGGUGAAGUGGUCAGAGGCCGAUGGCCUGG,5.65 ratio
UGACAAGCACGAGCAUCAGCCAUGCCUUUCCUUGACAUACAGAAAAAGCUGGGCAUCAGCCUGGACCGGCACUUUAUGUUCCUAAGCGCAGAACAGCCCUAUAAGAACGCCGCUCGGUGC,0.0881 ratio
GUGCCCUCCUUCUCGCUGCGGAGCCCGAGCUGGGAACCAUUCCGGGACUGGUACCCUGCACACAGCCGCCUCUUCGAUCAAGCUUUCGGGGUGCCCCGGUUGCCCGAUGAGUGGUCGCAG,0.0917 ratio
GGAAGUACAAUGAUGGAGAUUGAUGGUGAUAAAGGCAAGCAGGGCGGGCCCACCUACUACAUAGACACCAAUGCCCUCCGCGUGCCCAGGGAGAAUAUGGAGGCCAUCUCACCACUCAAG,0.257 ratio
UGGCGCCUCCCAUUUUUACUCGUGUUUUUAAGUGUAUUUUUAUAAGAUACAUGUAUUUACAAUUGAGUUUUUGAUUAAUAAUGCUGAAAUGCUACUGGAGAUUAUGAAAAAUGUUUCAAU,0.193 ratio

# Block 4
# Target: CREB3, bZIP domain (human)
# Method: DHFR protein complementation
# Matrix: yeast
# Notes: single substitutions, most at no-binding floor
# Reference: wild-type JUN-FOS pair
# Reading: higher = stronger binding
# Starting sequence: JUN, bZIP domain (human); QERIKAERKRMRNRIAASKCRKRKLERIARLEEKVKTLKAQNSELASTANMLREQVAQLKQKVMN; partner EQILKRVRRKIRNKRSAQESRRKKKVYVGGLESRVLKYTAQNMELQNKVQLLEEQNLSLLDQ
Change,binding fitness [natural log]
A40S,-1.45
E32Q,-1.38
M51N,-1.45
I28E,-1.47
A49C,-1.46
T48R,-1.28
A46Y,-1.48
R53K,-1.6
L45I,-1.56
E32G,-1.42
K39P,-1.54
L45S,-1.49
V35S,-1.5
A46M,-1.02

# Block 5
# Target: Centromere-binding protein 1, full length, His-tagged (CBF1, Saccharomyces cerevisiae, UniProt P17106, residues 1-351)
# Chain of UniProt P17106 (whole entry, looked up): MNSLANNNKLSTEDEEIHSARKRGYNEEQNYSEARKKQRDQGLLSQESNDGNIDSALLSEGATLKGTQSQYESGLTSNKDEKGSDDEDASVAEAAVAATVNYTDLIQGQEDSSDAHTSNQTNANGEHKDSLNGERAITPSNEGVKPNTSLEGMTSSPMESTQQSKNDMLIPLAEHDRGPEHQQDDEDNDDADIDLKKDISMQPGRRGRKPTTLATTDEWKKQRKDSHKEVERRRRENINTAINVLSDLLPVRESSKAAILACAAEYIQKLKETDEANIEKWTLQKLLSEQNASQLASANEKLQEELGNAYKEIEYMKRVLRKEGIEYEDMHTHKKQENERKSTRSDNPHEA
# Method: competition protein-binding microarray
# Form: double-stranded DNA, one strand shown
# Matrix: in vitro
# Tested at: 2 µM
# Notes: whole 60-bp probe, lowest competitor level
# Added: Pho4 competitor, 0.05 µM
# Reading: higher = stronger binding
# All sequences stand within: … GTCTTGATTCGCTTGACGCTGCTG
Strand,fluorescence intensity [a.u.]
CCGGAAGTGAAAGAAGACGTGATGGGCTATGCGCTA,73.6
AAGAAAGAGTTGGTCGTCGTGCCGATAACTTGAGAG,65
TTCCATCTTCTAAAGACCGTGTCTGCGCTTCCAGAT,58.1
AAAGCGGTAATTTGCATCGTGGGTGCAGATATCTAT,63.7
TGCGCAACAACTTTTCACGTGCGATTATGTCTAGAA,917
CAATTTGAAGTCCGTCACGGGAGGCAGTTGTTTGGT,208
AACCGGTCCCTTCTGTGCGTGGTCGGACCTGCTACA,51.6
CTAACGAAGGTTTTTCACGTGGTGTACAAGCCAAGT,833
GTCTTGTCTCATTGTCCCGTGGGTGTCCCCACTTCA,114
GTCATTACGGGGGTTCACGTGCGATGGGAAGCTTTT,987
CGGGGTTAAGTTTTTCACGTGCGATGCTTGCAGCAG,720
CCAGTAACTTCGTTGACCGTGATGGTCCGTTCATTT,70.7
AAAGCGGTAATTTGCTATGTGGGTGCAGATATCTAT,77.5
GTTATTTAAAGCTTCCACGTGCAAAATTTTAGGCAA,1480
CTAACGAAGGTTTGTCGTGTGGGTGACAAGCCAAGT,65.4
GGTACAGCGCCCTGTCATGTTCCCCGATTGCCTGTT,69.1
ACCAAGCATCAACACCATGTGCATACCATACCGCTA,144

# Block 6
# Target: CCNE1, cyclin fold, Cln2 fusion (human)
# Method: yeast growth competition, sequencing
# Matrix: yeast
# Notes: strong parent motif
# Reference: not given
# Reading: higher = stronger binding
# Starting sequence: E2F1 docking peptide (human); PPVKRRLDLETDH
Change,normalised enrichment score
PPVKRRLDLQTDH [E10Q],1.39
PPVKCRLDLETDH [R5C],0.303
PPVYRRLDLETDH [K4Y],-0.0708
PPAKRRLDLETDH [V3A],1.76
PPVKRREDLETDH [L7E],-0.108
PCVKRRLDLETDH [P2C],1.34
PPVKRRFDLETDH [L7F],0.0132
PPVERRLDLETDH [K4E],0.0559
PPVWRRLDLETDH [K4W],0.23
PPIKRRLDLETDH [V3I],-0.409
PPVKRRLDLYTDH [E10Y],0.667
QPVKRRLDLETDH [P1Q],1.29
PPVKRILDLETDH [R6I],1.52
PPVKRRQDLETDH [L7Q],0.478
PPVKRRLDLNTDH [E10N],1.98
PPVKRRLDLFTDH [E10F],1.03

# A few entries again (block 2):
Strand,RBNS enrichment (R)
CAGGCUGGCCUCGAACUCAGAAAUCGGCCUGCCUCUGCCUCCCGAGUGCUGGGAUUAAAGGCGUGCGCCACCACGUCUGGCUCCAUUUCUAAGUCUUGAACCAACUGACU,0.219
AGACACUCCCGCUGUAUGUGGUGAGCUUGGCUGGAAACUUGCCAUAGCCAGGACUGAGGGGCUGGCCCCAGGACGCUCUCAAGAAAUGGGGCUACUGUGGUUUAGACACU,0.904
CUUCUAUAUAAAACUUAAUACCAUUAGUUCCCCAUUCUUGACAUUUUAUUUCAGUUUUUAUUAUAUAUUUAUUUGAAAUAUUUAUUAAAUUAUCUGACCUACAGAACUAA,1.55
UAUGCAAUCCUAAAGGACGAAACUCACCCAUGGGAGGCCGAAUUCUCCUUGGGAUGAAGAAAUUUCUCUUUCCCUGUCAUGAGUGUCCAGCCAGGGAGCAGGGAGGCAGU,0.456
UCUGUACACGUUCUUAAGCAGCGUGUCAGGAGAGCACCCUGUUGUCUUCUGGUAAAUGUGUGCAGGGUCAUCCUGUCUCCUGUACCUCCUGGGAAAGGGGCCGCUGCUGU,0.219
UCAAGCCCUGCUUCUCAGCUAGUGAGCAUCAGCCCAAAGUCAGAACUCACAGGGGAUUCUCUGCAUUCAUCCCGGGUCUGUCCUCUCUGACUCUGCUACAUACAGGGUCC,0.318
